Measurements collected from several papers.
Each line is one published result; not all experiments were run side by side. Several values in a cell are separate wells, animals, samples, runs or records. Numbers after ± are the reported error.

SMILES	assay	system	conditions	measurement	result
CC[C@@H](C)[C@@H](NC(=O)[C@@H](Cc1ccc(O)cc1)NC(=O)[C@H]1CCCN1C(=O)[C@@H](CCCNC(=N)N)NC(=O)[C@H](N)Cc1c[nH]cn1)C(=O)N[C@H](C)C(=O)N[C@H](Cc1c[nH]cn1)C(=O)N[C@H](CCCNC(=N)N)C(=O)N[C@H](CCCCNC(=O)c1cccc(S(=O)(=O)F)c1)C(=O)N[C@H](Cc1ccc(O)cc1)C(=O)N[C@H](CO)C(=O)N[C@H](Cc1ccccc1)C(N)=O	–	10% human serum	2 h	remaining compound	106% and 105%
CC[C@H](C)[C@H](NC(=O)[C@H](CC(C)C)NC(=O)[C@H](CCCNC(=N)N)NC(=O)[C@@H](N)CCCNC(=N)N)C(=O)N[C@@H](CCCNC(=N)N)C(=O)N[C@@H](CCCCN)C(=O)N[C@@H](CC(C)C)C(=O)N[C@@H](CCCCN)C(=O)NCC(=O)N[C@@H](CC(C)C)C(=O)N[C@@H](CCCCN)C(=O)N[C@@H](CCCCN)C(=O)N[C@@H](Cc1ccc(O)cc1)C(=O)N[C@@H](CC(C)C)C(=O)N[C@@H](Cc1ccc(O)cc1)C(=O)N[C@@H](Cc1ccccc1)C(=O)N[C@@H](CCCCN)C(=O)N[C@@H](CC(C)C)C(=O)N[C@@H](CCC(N)=O)C(=O)N[C@@H](CC(C)C)C(=O)N[C@@H](CC(C)C)C(=O)N[C@@H](CCCCN)C(=O)N[C@@H](CCCCN)C(N)=O	LC-MS	25% human serum	200 µM, 60 h, 37 °C	remaining intact peptide	40 ± 5%
CC(C)C[C@@H]1NC(=O)CNC(=O)[C@H](CC(N)=O)NC(=O)[C@H](CCCNC(=N)N)NC(=O)[C@H]([C@@H](C)O)NC(=O)[C@@H]2CSSC[C@@H]3NC(=O)[C@H]([C@@H](C)O)NC(=O)CNC(=O)CNC(=O)[C@H](C(C)C)NC(=O)[C@@H]4CSSC[C@H](NC(=O)[C@H]([C@@H](C)O)NC(=O)[C@H](CSSC[C@H](NC(=O)[C@H](C(C)C)NC(=O)[C@H](CCCCN)NC1=O)C(=O)NCC(=O)N[C@@H](CCC(=O)O)C(=O)N[C@@H]([C@@H](C)O)C(=O)N4)NC(=O)CNC(=O)[C@@H]1CCCN1C(=O)[C@H]([C@@H](C)O)NC(=O)[C@H](CC(N)=O)NC3=O)C(=O)N[C@@H](CO)C(=O)N[C@@H](Cc1c[nH]c3ccccc13)C(=O)N1CCC[C@H]1C(=O)N[C@@H](C(C)C)C(=O)N2	HPLC	ammonium bicarbonate	180 µM, 14 days, pH 9.0, 25 °C, deamidation stability	remaining peptide	8.9 ± 0.5%
CC[C@@H](C)[C@@H](NC(=O)[C@@H](Cc1ccc(O)cc1)NC(=O)[C@H]1CCCN1C(=O)[C@@H](CCCNC(=N)N)NC(=O)[C@H](N)Cc1c[nH]cn1)C(=O)N[C@H](C)C(=O)N[C@H](Cc1c[nH]cn1)C(=O)N[C@H](CCCNC(=N)N)C(=O)N[C@@H](C(=O)N[C@H](Cc1ccc(O)cc1)C(=O)N[C@H](CO)C(=O)N[C@H](Cc1ccccc1)C(N)=O)C(C)C	–	10% human serum	0 h	remaining compound	99.8% and 100%
CCCCN1CCC(COC(=O)c2ccc(N)c(O[11CH3])c2)CC1	–	phosphate buffer	up to 2.5 h, room temperature	remaining radioligand	94.7 ± 0.7%
CC(C)C[C@@H]1NC(=O)[C@H](CC(N)=O)NC(=O)[C@H](CCCNC(=N)N)NC(=O)[C@H]([C@@H](C)O)NC(=O)[C@@H]2CSSC[C@@H]3NC(=O)[C@H]([C@@H](C)O)NC(=O)CNC(=O)CNC(=O)[C@H](C(C)C)NC(=O)[C@@H]4CSSC[C@H](NC(=O)[C@H]([C@@H](C)O)NC(=O)[C@H](CSSC[C@H](NC(=O)[C@H](C(C)C)NC(=O)[C@@H]5CCCN5C(=O)[C@H](CC(C)C)NC1=O)C(=O)NCC(=O)N[C@@H](CCC(=O)O)C(=O)N[C@@H]([C@@H](C)O)C(=O)N4)NC(=O)CNC(=O)[C@@H]1CCCN1C(=O)[C@H]([C@@H](C)O)NC(=O)[C@H](CC(N)=O)NC3=O)C(=O)N[C@@H](CO)C(=O)N[C@@H](Cc1c[nH]c3ccccc13)C(=O)N1CCC[C@H]1C(=O)N[C@@H](C(C)C)C(=O)N2	HPLC	ammonium bicarbonate	180 µM, 7 days, pH 9.0, 25 °C, deamidation stability	remaining peptide	99.4 ± 0.9%
CC[C@@H](C)[C@@H](NC(C)=O)C(=O)N[C@@H](CC(C)C)C(=O)N[C@@H](CCCNC(=N)N)C(=O)N[C@@H](Cc1c[nH]c2ccccc12)C(=O)N[C@@H](CO)C(=O)N[C@@H](CCCNC(=N)N)C(=O)N[C@@H](CCCCN)C(=O)N[C@@H](CC(C)C)C(=O)N1CCC[C@H]1C(=O)N[C@@H](CS)C(=O)N[C@H](C(=O)N[C@@H](CO)C(N)=O)C(C)C	12G5 competition, SUP-T1 cells	human plasma	concentration not given, 2 h	remaining activity	60 ± 8%
CC(C)[C@@H]1NC(=O)CNC(=O)[C@H](CC(N)=O)NC(=O)[C@H](CCCNC(=N)N)NC(=O)[C@H](Cc2ccc(O)cc2)NC(=O)[C@H](C(C)C)NC(=O)[C@@H](NC(=O)[C@@H](NC(=O)[C@H](CC(N)=O)NC(=O)[C@H](Cc2c[nH]c3ccccc23)NC(=O)[C@H](C)NC(=O)[C@H](Cc2ccccc2)NC(=O)CN)C(C)C)CSSC[C@@H](C(=O)N[C@@H](Cc2cnc[nH]2)C(=O)N[C@@H](CCCNC(=N)N)C(=O)N[C@@H](CCCNC(=N)N)C(=O)N[C@@H](C)C(=O)N[C@@H](CC(N)=O)C(N)=O)NC(=O)[C@H](C(C)C)NC(=O)[C@H](CCCNC(=N)N)NC1=O	HPLC	mouse liver homogenate	2560 µM, 4.00 h, 50 mg/mL tissue	remaining peptide	7.81% and 4.94% and 8.2%
CSCC[C@H](NC(=O)[C@H](N)Cc1ccccc1)C(=O)N[C@@H](CCCNC(=N)N)C(=O)N[C@@H](Cc1c[nH]c2ccccc12)C(=O)N[C@@H](CO)C(=O)N[C@@H](CCCNC(=N)N)C(=O)N[C@@H](CCCCN)C(=O)N[C@@H](CCSC)C(=O)N1CCC[C@H]1C(=O)N[C@@H](CS)C(=O)N[C@H](C(=O)N[C@@H](CO)C(N)=O)C(C)C	12G5 competition, SUP-T1 cells	human plasma	20 µM, 2 h, 37 °C	remaining activity	70 ± 5%
CC(C)C[C@@H]1NC(=O)CNC(=O)[C@H](CC(N)=O)NC(=O)[C@H](CCCNC(=N)N)NC(=O)[C@H]([C@@H](C)O)NC(=O)[C@@H]2CSSC[C@@H]3NC(=O)[C@H]([C@@H](C)O)NC(=O)CNC(=O)CNC(=O)[C@H](C(C)C)NC(=O)[C@@H]4CSSC[C@H](NC(=O)[C@H]([C@@H](C)O)NC(=O)[C@H](CSSC[C@H](NC(=O)[C@H](C(C)C)NC(=O)[C@@H]5CCCN5C1=O)C(=O)NCC(=O)N[C@@H](CCC(=O)O)C(=O)N[C@@H]([C@@H](C)O)C(=O)N4)NC(=O)CNC(=O)[C@@H]1CCCN1C(=O)[C@H]([C@@H](C)O)NC(=O)[C@H](CCCCN)NC3=O)C(=O)N[C@@H](CO)C(=O)N[C@@H](Cc1c[nH]c3ccccc13)C(=O)N1CCC[C@H]1C(=O)N[C@@H](C(C)C)C(=O)N2	HPLC	water	180 µM, 14 days, 37 °C, deamidation stability	remaining peptide	99 ± 0.2%
CSCC[C@H](NC(=O)[C@H](CCCCN)NC(=O)[C@H](CCCNC(=N)N)NC(=O)[C@H](CO)NC(=O)[C@H](Cc1c[nH]c2ccccc12)NC(=O)[C@H](CCCNC(=N)N)NC(=O)[C@H](CC(C)C)NC(=O)[C@@H](CO)NC(C)=O)C(=O)N1CCC[C@H]1C(=O)N[C@@H](CS)C(=O)N[C@H](C(=O)N[C@@H](CO)C(N)=O)C(C)C	12G5 competition, SUP-T1 cells	human plasma	concentration not given, 8 h	remaining activity	52 ± 2%
CC(C)C[C@@H]1NC(=O)CNC(=O)[C@H](CC(N)=O)NC(=O)[C@H](CCCNC(=N)N)NC(=O)[C@H]([C@@H](C)O)NC(=O)[C@@H]2CSSC[C@@H]3NC(=O)[C@H]([C@@H](C)O)NC(=O)CNC(=O)[C@H](CCCCN)NC(=O)[C@H](C(C)C)NC(=O)[C@@H]4CSSC[C@H](NC(=O)[C@H]([C@@H](C)O)NC(=O)[C@H](CSSC[C@H](NC(=O)[C@H](C(C)C)NC(=O)[C@@H]5CCCN5C1=O)C(=O)NCC(=O)N[C@@H](CCC(=O)O)C(=O)N[C@@H]([C@@H](C)O)C(=O)N4)NC(=O)CNC(=O)[C@@H]1CCCN1C(=O)[C@H]([C@@H](C)O)NC(=O)[C@H](CC(N)=O)NC3=O)C(=O)N[C@@H](CO)C(=O)N[C@@H](Cc1c[nH]c3ccccc13)C(=O)N1CCC[C@H]1C(=O)N[C@@H](C(C)C)C(=O)N2	HPLC	ammonium bicarbonate	180 µM, 7 days, pH 9.0, 25 °C, deamidation stability	remaining peptide	97.3 ± 0.4%
C/C(=C\CCP(=O)(OCOC(=O)c1ccccc1)Oc1ccc(C(C)C)cc1)CO (stereo not shown)	–	50% Sprague-Dawley rat plasma	100 µM, 2 h, pH 7.5, 37 °C	remaining compound	0.079%

A few entries again:
SMILES	assay	system	conditions	measurement	result
CCCCN1CCC(COC(=O)c2ccc(N)c(O[11CH3])c2)CC1	–	phosphate buffer	up to 2.5 h, room temperature	remaining radioligand	94.7 ± 0.7%
CC(C)C[C@@H]1NC(=O)[C@H](CC(N)=O)NC(=O)[C@H](CCCNC(=N)N)NC(=O)[C@H]([C@@H](C)O)NC(=O)[C@@H]2CSSC[C@@H]3NC(=O)[C@H]([C@@H](C)O)NC(=O)CNC(=O)CNC(=O)[C@H](C(C)C)NC(=O)[C@@H]4CSSC[C@H](NC(=O)[C@H]([C@@H](C)O)NC(=O)[C@H](CSSC[C@H](NC(=O)[C@H](C(C)C)NC(=O)[C@@H]5CCCN5C(=O)[C@H](CC(C)C)NC1=O)C(=O)NCC(=O)N[C@@H](CCC(=O)O)C(=O)N[C@@H]([C@@H](C)O)C(=O)N4)NC(=O)CNC(=O)[C@@H]1CCCN1C(=O)[C@H]([C@@H](C)O)NC(=O)[C@H](CC(N)=O)NC3=O)C(=O)N[C@@H](CO)C(=O)N[C@@H](Cc1c[nH]c3ccccc13)C(=O)N1CCC[C@H]1C(=O)N[C@@H](C(C)C)C(=O)N2	HPLC	ammonium bicarbonate	180 µM, 7 days, pH 9.0, 25 °C, deamidation stability	remaining peptide	99.4 ± 0.9%
